Assay results from different studies.
Lines come from different studies, so protocols differ. Several values in a cell are separate wells, animals, samples, runs or records. ± marks the error that the study gave.

`CCCC[C@@H]1NC(=O)[C@@H](NC(=O)[C@H](CCC(=O)O)NC(=O)CNC(=O)CN2CCN(CC(=O)O)CCN(CC(=O)O)CCN(CC(=O)O)CC2)CCCCNC(=O)C[C@@H](C(N)=O)NC(=O)[C@H](C(C)C)NC(=O)[C@@H]2CCCN2C(=O)[C@H](CCCNC(=N)N)NC(=O)CNC(=O)[C@H](Cc2c[nH]c3ccccc23)NC(=O)[C@H](CCCNC(=N)N)NC(=O)[C@@H](Cc2ccccc2)NC(=O)[C@H](Cc2c[nH]cn2)NC(=O)[C@H](CCC(=O)O)NC1=O` [gallium-67 labelled] gave an intestine uptake of 0.2 ± 0.01 %ID (C57 mice, B16/F1 flank melanoma, intestine; intravenous, 0.037 MBq/mouse, 24 h).
`NS(=O)(=O)c1ccc(N2N=C(C(F)(F)F)CC2c2ccc(F)cc2F)cc1` (stereo not drawn) gave an AUC(0-inf) of 14.9 µg·h/mL (beagle dog, plasma; oral, 1 mg/kg, single dose).
For `CCC/C(=C\C1=C(OC)C(=O)c2ccccc2C1=O)C(=O)NOC`, the scaled CLint was 1.4 L/h/kg (metabolic stability; mouse, liver microsomes; 1 µM, pH 7.4).
Under “anodic peak potential”, `Cc1nc(N(C)C)nc(C)c1O` is recorded as 0.17 V vs Ag/AgCl (differential pulse voltammetry; pH pKa, 298 K).
`CN(C)c1ccc2c(-c3cc(C(=O)N4CCN(CCCOc5ccc6nccc(C(=O)NCC(=O)N7CC(F)(F)C[C@H]7C#N)c6c5)CC4)ccc3C(=O)[O-])c3ccc(=[N+](C)C)cc-3oc2c1` — result for “half-life fast phase”: 1.9 min (intravital imaging; mouse, blood; intravenous, 100 µg).
`O=C(O)[C@H]1O[C@@H](O[C@H](C[C@H]2c3c(F)cccc3-c3cncn32)[C@H]2CC[C@H](O)CC2)[C@H](O)[C@@H](O)[C@@H]1O` gave a urinary excretion of 59.7% (human, urine; oral, 200 mg, [14C]-navoximod dosed; reference: dose).
`CCCC[C@H](NC(=O)CNC(=O)CNC(=O)CN1CCN(CC(=O)O)CCN(CC(=O)O)CC1)C(=O)N[C@H]1CC(=O)NCCCC[C@@H](C(N)=O)NC(=O)[C@H](Cc2c[nH]c3ccccc23)NC(=O)[C@H](CCCNC(=N)N)NC(=O)[C@@H](Cc2ccccc2)NC(=O)[C@H](Cc2c[nH]cn2)NC1=O` [copper-64 labelled] has an uptake ratio of 22.1 (female C57 mouse, B16/F1 melanoma; intravenous, 0.037 MBq, 2 h; reference: tumour over lung).
The HPLC retention of `CC(C)C[C@H](NC(=O)[C@H](CC(C)C)NC(=O)[C@@H](Cc1c[nH]c2ccccc12)NC(=O)[C@@H](NC(=O)[C@@H](Cc1csc2ccccc12)NC(=O)[C@@H](N)CCCCN)[C@@H](c1ccccc1)c1c[nH]c2ccccc12)C(N)=O` is reported as 61 %B (RP-HPLC Jupiter Proteo; acetonitrile/water TFA gradient).
With `Nc1nccc(-c2cn(C3CC3)c3ccccc23)n1` the plasma concentration was 4.44 ng/g (radiolabelled metabolite profiling; human male, plasma; oral, 110 mg, 2 h).
With `CC1C(c2c(F)ccc(F)c2F)CC(N[14C](=O)c2cnc3c(c2)CC2(C3)C(=O)Nc3ncccc32)C(=O)N1CC(F)(F)F` (stereo not drawn) the fecal excretion was 80.6% and ~81% and 81% (item: total radioactivity; human, feces; through last collection; reference: dose).
With `CN(C)c1cc(CN2CCCCC2)c(O)c2c1C[C@H]1C[C@H]3[C@H](N(C)C)C(O)=C(C(N)=O)C(=O)[C@@]3(O)C(O)=C1C2=O` the Tmax was 12 min (cynomolgus monkey, plasma; intravenous, 5 mg/kg).
`Cc1ccc(/N=N/c2c(O)ccc3ccccc23)c(C)c1`: “absorption rate constant” 1.39 h⁻¹ (Sprague-Dawley rats both sexes, whole blood; oral, 50 mg/kg).
The Tmax of `Cc1ccc(OCC(=O)O)cc1` is reported as 48.6 min (Sprague-Dawley rat, female, plasma; oral gavage, 30 mg/kg of parent drug).
Under “log association constant”, `COc1ccc(NC(=O)[C@H](CCCCN)NC(=O)c2cc(NC(=O)[C@H](CCCCN)NC(=O)c3cc(NC(=O)[C@H](CCCCN)NC(=O)c4cc(NC(=O)[C@@H](N)CCCCN)ccc4OC)ccc3OC)ccc2OC)cc1C(N)=O` is recorded as 26.5 (UV-vis λmax shift; Tris 50 mM; pH 7.4, monomer-hexamer global fit, with: NaCl 1.0 M).
For `CCN(c1cc(C#CCN2CCOCC2)cc(C(=O)NCc2c(C)cc(C)[nH]c2=O)c1C)[C@H]1CC[C@H](N(C)CCOC)CC1`, “scaled intrinsic clearance” read 0.36 L/h/kg (human liver microsomes; well-stirred model).
With `CC(C)[C@H](NC(=O)CNC(=O)[C@H](CCC(N)=O)NC(=O)[C@H](C)N)C(=O)O` the half-life was 14.4 min (LC-MS/MS; human, male, plasma; intravenous, 30 mg/kg three times daily, day 1, first dose, 10 min infusion, geometric mean).
The AUC(0-inf) of `CC(C)C[C@@H](NC(=O)[C@H](NC(=O)[C@H]1CCCN1)[C@H](C)O)C(=O)N[C@H](Cc1c[nH]cn1)C(=O)N[C@@H](C(=O)N[C@H](Cc1c[nH]cn1)C(=O)N[C@H](CC(N)=O)C(=O)N[C@H](CCCNC(=N)N)C(=O)N[C@H](CCCNC(=N)N)C(=O)N[C@H](CCCNC(=N)N)C(=O)N[C@H](CCCNC(=N)N)C(=O)N[C@H](CCCNC(=N)N)C(N)=O)[C@H](C)O` is reported as 3.89 µg·h/mL (beagle dog, plasma; oral, 20 mg/kg, single dose).
Under “apparent distributional clearance”, `N=C(N)NCCC[C@@H]1NC(=O)[C@H](Cc2c[nH]c3ccccc23)NC(=O)[C@@H](CC2CCCCC2)NC(=O)[C@@H]2CCCN2C(=O)[C@@H](NC(=O)CCc2ccccc2)CCCNC1=O` is recorded as 0.7 ng/(min·ng/g) (C57BL/6J mice, brain; subcutaneous, 1 mg/kg, two-compartment model).
`C[C@H]1CO[C@@H]2Cn3cc(C(=O)NCc4ccc(F)cc4F)c(=O)c(O[C@@H]4O[C@H](C(=O)O)[C@@H](O)[C@H](O)[C@H]4O)c3C(=O)N12` has a plasma concentration of 0.0281 ± 0.0666 µg/mL (LC-MS/MS; human, UGT1A9 wild-type, plasma; oral, 30 mg, 1 weeks after last oral dose).
The AUC extrapolated of `CCC(=O)N(C)c1ccc(Cl)c(Cl)c1` is reported as 4.55% (LC-MS/MS; mouse C57BL/6 female, plasma; subcutaneous, 2 mg/kg).
`COc1cc(NC(C)=O)c2c(c1O)-c1c(OC)c(OC)cc3c1C(C2)N(C)CC3` (stereo not drawn) gave a remaining compound of 99.9 ± 1.6% (rat lung homogenate; 5 µg/mL, time not given, three freeze-thaw cycles).
`CC/C=C\C/C=C\C/C=C\C/C=C\C/C=C\CCCCOC(CC)C(=O)O` (stereo not drawn) gave a tissue concentration of 2.7 µg equivalents/g tissue (radioactivity, 14C-labelled; Wistar rat, male, liver; oral, 100 mg/kg, 3 days).
`O=C(O)C1CN(Cc2ccc(-c3noc(-c4ccc(OCC[18F])c(C(F)(F)F)c4)n3)cc2)C1` gave a liver uptake of 12.5 %ID/g (biodistribution; C57BL/6 mouse, sham, liver; 2 h).
`C[C@@H](C(=O)O)N(CC(=O)N(CCS)CC(N)=O)C(=O)CN(C(=O)CN(C(=O)CN(C(=O)CN(C(=O)CN(C(=O)CN(C(=O)CN(C(=O)CN(C(=O)CN(C(=O)CN(C(=O)CN(C(=O)CNCCS)[C@@H](C)c1ccccc1)[C@@H](C)C(=O)O)[C@@H](C)C(=O)O)[C@@H](C)c1ccccc1)[C@@H](C)C(=O)O)[C@@H](C)C(=O)O)[C@@H](C)c1ccccc1)[C@@H](C)C(=O)O)[C@@H](C)C(=O)O)[C@@H](C)c1ccccc1)[C@@H](C)C(=O)O` has a water solubility of no less than 2300 µM (distilled water).
`CC(C)NC(=O)N1CC=C(c2cc3c(Nc4ccc5scnc5c4)ncnc3s2)CC1` has a concentration of 0.00507 µg/mL (BALB/c mouse, plasma; oral, 10 mg/kg, 30 min).
With `O=c1nc(NO)ccn1[C@@H]1O[C@H](CO)[C@@H](O)[C@H]1O` the mRNA level was 0.4 fold (RT-PCR, item: CYP2C11; rat, arthritis model, liver; oral, 80 mg/kg twice daily, 5 days; reference: untreated arthritic rats).
`O=[11C](OC(C(F)(F)F)C(F)(F)F)N1CCC(CNS(=O)(=O)c2ccc(Cl)cc2)CC1` gave a radioactivity uptake of 1.55 SUV (PET; Sprague-Dawley rat, hippocampus; intravenous, dose not given, baseline).
`NC[C@@H](C(=O)Nc1ccc(-c2cn[nH]c2)cc1)c1ccccc1` — result for “ocular irritation score”: 0 (OECD 405, item: Cornea; New Zealand White rabbit; topical, 0.1 %, 73 h, day 4; direction not given).
For `CCC1CNC(CC)CN(C(C(=O)[O-])c2ccc(C(=O)[O-])cc2)C(CC)CN(CC(=O)[O-])C(CC)CN1.[Mn+2]` (stereo not drawn), the Mn content was 5.03 µg/g (ICP-MS; BALB/c mice, liver; intravenous, 0.05 mmol/kg, 5 min).
`Cc1ccc(-c2ccc(-c3cc4sccc4o3)cn2)nc1` gave a fluorescence lifetime of 0.94 ns (TCSPC; dioxane).
For `CCCCCCCCCCCCCCCC(=O)OCC(CSC[C@H](N)C(=O)NCC(=O)N[C@@H](CC(=O)O)C(=O)N1CCC[C@H]1C(=O)N[C@@H](CCCCN)C(=O)N[C@@H](Cc1c[nH]cn1)C(=O)N1CCC[C@H]1C(=O)N[C@@H](CCCCN)C(=O)N[C@@H](CO)C(=O)N[C@@H](Cc1ccccc1)C(=O)O)OC(=O)CCCCCCCCCCCCCCC` (stereo partly drawn), the half-life was 852 min (LC-MS/MS; rhesus monkey, non-irradiated, plasma; subcutaneous, 0.09 mg/kg single dose).
Under “blood urea nitrogen”, `CCNC(=O)OCc1c(COC(=O)NCC)c(-c2ccc(OC)cc2)n2c1Cc1ccccc1-2` is recorded as 18.6 ± 1.3 mg/dL (BALB/c nude mice, blood; concentration not given, day 10).
For `C=C(c1ncc(C(=O)O)cn1)c1cc2c(cc1C)C(C)(C)CCC2(C)C`, the HDL level was 54 ± 6.4 mg/dL (Sprague-Dawley rat, male, plasma; oral, 100 mg/kg, 3 h, sesame oil vehicle).
`CCc1nc(-c2ccc(-c3ccc(CCC(N)(CO)CO)cc3)cc2)co1` has a CLint of 0.014 µL/min (phosphorylation; human whole blood).
For `Cc1cccc(O[C@H]2CCC[C@@H](C(C)CNCc3ccncc3)C2)c1` (relative stereo), the AUC(0-t) was 2.77 µg·h/mL (C57BL/6 mouse female, plasma; oral, 25 mg/kg).
`CC(C)(O)c1ncc([S@](N)(=O)=NC(=O)Nc2c3c(cc4c2CCC4)CCC3)s1` gave an AUC(0-last)/dose of 722 ng·h/mL/mg (healthy human, fasted; oral, 100 mg single dose, capsule formulation).
`O=C(NCCN1CCOCC1)c1cc2c3ccccc3n3c(=O)ccc(n1)c23`: “water solubility ratio” roughly 6 fold (water; 2 h; reference: compound over CO).
`CC(C)(Sc1ccncc1-c1ccc(C#N)c2ccccc12)C(=O)OC1OC(C(=O)O)C(O)C(O)C1O` (stereo not drawn) has a terminal half-life of 714 min (plasma; oral, 15 mg, normal renal function, fasted).
With `CC(=O)N[C@H](CC(=O)O)C(=O)N[C@H](Cc1c[nH]c2ccccc12)C(=O)N[C@H](Cc1ccccc1)C(=O)N[C@H](CCCCN)C(=O)N[C@H](C)C(=O)N[C@H](Cc1ccccc1)C(=O)N[C@H](Cc1ccc(O)cc1)C(=O)N[C@H](CC(=O)O)C(=O)N[C@H](CCCCN)C(=O)N[C@@H](C(=O)N[C@H](C)C(=O)N[C@H](CCC(=O)O)C(=O)N[C@H](CCCCN)C(=O)N[C@H](Cc1ccccc1)C(=O)N[C@H](CCCCN)C(=O)N[C@H](CCC(=O)O)C(=O)N[C@H](C)C(=O)N[C@H](Cc1ccccc1)C(N)=O)C(C)C` the AUC(0-t) was 0.104 µg·h/mL (statin-treated high-risk CHD men, plasma; oral, 500 mg daily, day 13, 0 to 8 h, mean, all subjects).
For `C=C(c1ccc(C(=O)O)c(F)c1)c1cc2c(cc1C)C(C)(C)C=CC2(C)C`, the HDL level was 59 ± 7 mg/dL (Sprague-Dawley rat, male, plasma; oral, 100 mg/kg, 9 h, sesame oil vehicle).
Under “bilirubin increased incidence”, `Cn1c(=O)oc2ccc(-c3ccc(CC(C#N)NC(=O)C4CNCCCO4)c(F)c3)cc21` (stereo not drawn) is recorded as 11.1% (human; oral, 40 mg once daily, treatment-related AE, multiple ascending dose).
`CCCCC1NC(=O)c2ccccc21` (racemic) has an absorption half-life of 5.6 ± 0.1 min (Wistar rat, both sexes, plasma; oral, 10 mg/kg).

A few entries again:
For `CCN(c1cc(C#CCN2CCOCC2)cc(C(=O)NCc2c(C)cc(C)[nH]c2=O)c1C)[C@H]1CC[C@H](N(C)CCOC)CC1`, “scaled intrinsic clearance” read 0.36 L/h/kg (human liver microsomes; well-stirred model).
With `CC(C)[C@H](NC(=O)CNC(=O)[C@H](CCC(N)=O)NC(=O)[C@H](C)N)C(=O)O` the half-life was 14.4 min (LC-MS/MS; human, male, plasma; intravenous, 30 mg/kg three times daily, day 1, first dose, 10 min infusion, geometric mean).
The AUC(0-inf) of `CC(C)C[C@@H](NC(=O)[C@H](NC(=O)[C@H]1CCCN1)[C@H](C)O)C(=O)N[C@H](Cc1c[nH]cn1)C(=O)N[C@@H](C(=O)N[C@H](Cc1c[nH]cn1)C(=O)N[C@H](CC(N)=O)C(=O)N[C@H](CCCNC(=N)N)C(=O)N[C@H](CCCNC(=N)N)C(=O)N[C@H](CCCNC(=N)N)C(=O)N[C@H](CCCNC(=N)N)C(=O)N[C@H](CCCNC(=N)N)C(N)=O)[C@H](C)O` is reported as 3.89 µg·h/mL (beagle dog, plasma; oral, 20 mg/kg, single dose).
